Experimental data of several laboratories.
Each line is one published result; not all experiments were run side by side. ± gives the spread as reported. Ends that are not written are not given here.
Melanocortin receptor 5: Melanocortin receptor 5 (Mus musculus, UniProt P41149)
UniProt P41149, sequence (whole entry, looked up): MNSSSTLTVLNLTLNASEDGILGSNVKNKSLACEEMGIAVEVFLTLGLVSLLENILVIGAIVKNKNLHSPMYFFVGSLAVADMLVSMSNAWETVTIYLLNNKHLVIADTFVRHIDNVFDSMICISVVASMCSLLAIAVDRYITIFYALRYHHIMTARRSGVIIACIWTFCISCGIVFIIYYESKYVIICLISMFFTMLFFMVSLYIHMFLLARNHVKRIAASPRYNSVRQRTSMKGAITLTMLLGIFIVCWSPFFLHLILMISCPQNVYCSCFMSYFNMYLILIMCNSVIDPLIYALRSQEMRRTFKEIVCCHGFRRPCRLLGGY

desB30 human insulin
adsorption enthalpy (reversed-phase chromatography; C4 silica; pH 7.5): -30.4 ± 4.78 kcal/mol

CCCC[C@H](NC(=O)[C@H](CO)NC(=O)[C@H](Cc1ccc(O)cc1)NC(=O)[C@H](CO)NC(C)=O)C(=O)N[C@@H](CCC(=O)O)C(=O)N[C@@H](C)C(=O)N[C@H](Cc1ccccc1)C(=O)N[C@@H](CCCNC(=N)N)C(=O)N[C@@H](Cc1c[nH]c2ccccc12)C(=O)NCC(=O)N[C@@H](CCCCN)C(=O)N1CCC[C@H]1C(=O)N[C@H](C(N)=O)C(C)C
EC50 (Melanocortin receptor 5): 0.29 ± 0.16 nM

insulin glulisine
Cmax (obese type 2 diabetes patients, serum; subcutaneous, 0.2 U/kg, geometric mean): 0.534 nM

insulin aspart
Cmax (healthy subjects, plasma; subcutaneous, 0.2 U/kg): 2.98 ng/mL

rnpA F107W (Bacillus subtilis)
pKa (NMR, measured: His105; 25 °C, 0.15 M NaCl, sulfate-bound folded state, numbering of the source, added: 20 mM Na2SO4): 5.46

KCNTATCATQRLANFLVHSSNNFGPILPPTNVGSNTY (Pramlintide; not fully specified (C-terminus, bridges); cysteine pairing not given here; sequence looked up)
adverse event incidence (measured: Diarrhea; peptide, obese or overweight humans; concentration not given, ITT population): 5.4%

DSSEEKFLRRIGRFGYGYGPYQPVPEQPLYPQPYQPQYQQYTF (statherin; sequence looked up)
half-life (RP-HPLC; pooled human whole saliva; 400 µg/mL, 37 °C): 26 min

CSCC[C@H](NC(=O)[C@H](CO)NC(=O)[C@H](Cc1ccc(O)cc1)NC(=O)[C@H](CO)NC(C)=O)C(=O)N[C@@H](CCC(=O)O)C(=O)N[C@@H](Cc1c[nH]cn1)C(=O)N[C@@H](Cc1ccccc1)C(=O)N[C@@H](CCCNC(=N)N)C(=O)N[C@@H](Cc1c[nH]c2ccccc12)C(=O)NCC(=O)N[C@@H](CCCCN)C(=O)N1CCC[C@H]1C(=O)N[C@@H](C)C(N)=O
EC50 (Melanocortin receptor 5): 30 ± 25 nM

insulin lispro
AUC(0-inf) (healthy Japanese men, fasted, plasma; subcutaneous, 0.3 U/kg): 12.4 ± 1.46 ng·h/mL

CCCCCCCCCCCCCCCC(=O)NCCCC[C@H](NC(=O)[C@H](CSCC(=O)NCc1cn(CCOc2ccc(C3=C4C(C)=C(I)C(C)=[N+]4[B-](F)(F)n4c(C)c(I)c(C)c43)cc2)nn1)NC(=O)c1ccc(-c2nnc(C)c3c2CCC(O)CCC3)cc1)C(=O)N[C@@H](CCCNC(=N)N)C(=O)N[C@@H](CCCNC(=N)N)C(=O)N[C@@H](CCCNC(=N)N)C(=O)N[C@@H](CCCNC(=N)N)C(N)=O (some centres unmarked)
singlet oxygen quantum yield (1 µM, added: DPBF, 525 nm light; relative to: rose bengal, erythrosine B): 0.59

CSCC[C@H](NC(=O)[C@H](CC(C)C)NC(=O)[C@H](Cc1c[nH]cn1)NC(=O)CNC(=O)[C@@H](NC(=O)[C@H](C)NC(=O)[C@H](Cc1c[nH]c2ccccc12)NC(=O)[C@H](CCC(N)=O)NC(=O)CCCCCNC(=O)[C@H](CCC(=O)NCCCC[C@@H]1NC(=O)[C@@H](Cc2ccc(O)cc2)NC(=O)[C@H](CC(=O)O)NC(=O)CNC(=O)[C@H](CCCNC(=N)N)NC1=O)NC(=O)CN1CCN(CC(=O)O)CCN(CC(=O)O)CC1)C(C)C)C(N)=O [copper-64 labelled]
tissue uptake (ICR SCID mouse, female, lung; intravenous, 750 kBq, 24 h): 0.56 ± 0.16 %ID/g

CC(C)[C@H](NC(=O)[C@@H]1CCCN1C(=O)[C@H](CCCNC(=N)N)NC(=O)[C@H](CS)NC(=O)[C@H](Cc1c[nH]c2ccccc12)NC(=O)[C@H](CCCNC(=N)N)NC(=O)[C@@H](Cc1ccccc1)NC(=O)[C@H](Cc1c[nH]cn1)NC(=O)[C@H](CCC(=O)O)NC(=O)[C@H](CS)NC(=O)[C@H](CS)NC(=O)[C@H](CCCCN)NC(=O)[C@@H]1CC(=O)N[C@@H](CCCNC(=N)N)C(=O)N[C@@H](C)C(=O)N[C@@H](CC(=O)O)C(=O)N[C@H](Cc2ccc(O)cc2)C(=O)N1)C(N)=O [technetium-99m labelled]
tissue uptake (C57 mice, lung; intravenous, 0.037 MBq, 24 h): 0.29 ± 0.07 %ID/g

COc1cccc2c1C(=O)c1c(O)c3c(c(O)c1C2=O)C[C@@](O)(C(=O)CO)C[C@@H]3O[C@H]1C[C@H](NC(=O)[C@@H]2CCCN2C(=O)CN)[C@H](O)[C@H](C)O1
Cmax (mouse, E0771 tumour-bearing, kidney; intravenous, 92 µmol/kg PhAc-ALGP-Dox): 54000 nM

insulin icodec
time to steady state (Japanese type 1 diabetes patients, serum; subcutaneous, once weekly): 2 to 3 weeks

insulin degludec
Cmax ratio (ELISA; human moderate renal impairment, serum; dose not given, single dose; relative to: impaired over normal renal function): 1.06

C=CC(=O)OCC
peptide depletion (cysteine peptide Ac-RFAACAA-COOH; DPRA RapidFire-MS/MS; 24 h, pH 7.5, added: 5.0 µM cysteine peptide): inactive

insulin aspart
onset of appearance (ELISA; Japanese type 1 diabetes patients, serum; subcutaneous, 0.2 U/kg): 7.1 min

N=C(N)NCCC[C@@H]1NC(=O)[C@H](CCCCNC(=O)CCOCCOCCOCCOCCNC(=O)CC[C@H](NC(=O)CCOCCOCCOCCOCCNC(=O)c2ccc(NN)nc2)C(=O)NCCOCCOCCOCCOCCC(=O)NCCCC[C@@H]2NC(=O)[C@@H](Cc3ccccc3)NC(=O)[C@H](CC(=O)O)NC(=O)CNC(=O)[C@H](CCCNC(=N)N)NC2=O)NC(=O)[C@@H](Cc2ccccc2)NC(=O)[C@H](CC(=O)O)NC(=O)CNC1=O [technetium-99m labelled]
tissue uptake (athymic nude mice, female, U-87 MG glioma xenograft, tumour; intravenous, 0.1 MBq, range over 5 and 60 min): 7.24 to 8.72 %ID/g

CC1=C(I)C(C)=[N+]2C1=C(c1ccc(OCCn3cc(CNC(=O)CSC[C@H](NC(=O)c4ccc(-c5nnc(C)c6c5CCC(O)CCC6)cc4)C(=O)N[C@@H](CC4CCCCC4)C(=O)N[C@H](CCCNC(=N)N)C(=O)N[C@@H](CC4CCCCC4)C(=O)N[C@H](CCCNC(=N)N)C(=O)N[C@@H](CC4CCCCC4)C(=O)N[C@H](CCCNC(=N)N)C(N)=O)nn3)cc1)c1c(C)c(I)c(C)n1[B-]2(F)F (some centres unmarked)
singlet oxygen quantum yield (1 µM, added: DPBF, 525 nm light; relative to: rose bengal, erythrosine B): 0.59

Nc1cccc(O)c1
IC50 (cysteine peptide Ac-RFAACAA-COOH; peptide depletion, DPRA RapidFire-MS/MS; 24 h, pH 7.5, room temperature, added: 5.0 µM cysteine peptide): 8660 nM

glial fibrillary acidic protein
stability (human EDTA whole blood; 24 h, 2 to 8 °C, delayed centrifugation): stable

COc1cccc2c1C(=O)c1c(O)c3c(c(O)c1C2=O)C[C@@](O)(C(=O)CO)C[C@@H]3O[C@H]1C[C@H](NC(=O)[C@@H]2CCCN2C(=O)CNC(=O)[C@@H](N)CC(C)C)[C@H](O)[C@H](C)O1
Cmax (mouse, E0771 tumour-bearing, plasma; intravenous, 92 µmol/kg PhAc-ALGP-Dox): 740 nM

insulin aspart
onset of appearance (elderly type 1 diabetes, serum; subcutaneous, 0.2 U/kg): 5.2 min

Excerpt of the above:
insulin icodec
time to steady state (Japanese type 1 diabetes patients, serum; subcutaneous, once weekly): 2 to 3 weeks

insulin degludec
Cmax ratio (ELISA; human moderate renal impairment, serum; dose not given, single dose; relative to: impaired over normal renal function): 1.06
